# Assay results from different studies.
# SIGMAR1: Sigma non-opioid intracellular receptor 1 (SIGMAR1, Homo sapiens, UniProt Q99720)
# Chain of UniProt Q99720 (whole entry, looked up): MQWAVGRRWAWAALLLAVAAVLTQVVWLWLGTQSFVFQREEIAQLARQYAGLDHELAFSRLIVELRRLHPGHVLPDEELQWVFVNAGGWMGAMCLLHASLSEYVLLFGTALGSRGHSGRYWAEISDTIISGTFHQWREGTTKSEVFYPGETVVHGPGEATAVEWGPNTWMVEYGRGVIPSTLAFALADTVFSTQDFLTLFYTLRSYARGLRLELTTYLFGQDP
# Chain of UniProt P25774 (whole entry, looked up): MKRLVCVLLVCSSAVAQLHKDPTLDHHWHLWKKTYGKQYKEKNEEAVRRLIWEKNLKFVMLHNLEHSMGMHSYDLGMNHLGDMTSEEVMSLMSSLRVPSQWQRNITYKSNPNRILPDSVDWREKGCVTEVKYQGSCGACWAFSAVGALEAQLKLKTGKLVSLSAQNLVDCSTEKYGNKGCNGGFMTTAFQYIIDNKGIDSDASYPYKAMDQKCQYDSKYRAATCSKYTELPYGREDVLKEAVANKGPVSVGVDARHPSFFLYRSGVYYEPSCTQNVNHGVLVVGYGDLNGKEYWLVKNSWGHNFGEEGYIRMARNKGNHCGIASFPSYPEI
# Chain of UniProt Q0VDG4 (whole entry, looked up): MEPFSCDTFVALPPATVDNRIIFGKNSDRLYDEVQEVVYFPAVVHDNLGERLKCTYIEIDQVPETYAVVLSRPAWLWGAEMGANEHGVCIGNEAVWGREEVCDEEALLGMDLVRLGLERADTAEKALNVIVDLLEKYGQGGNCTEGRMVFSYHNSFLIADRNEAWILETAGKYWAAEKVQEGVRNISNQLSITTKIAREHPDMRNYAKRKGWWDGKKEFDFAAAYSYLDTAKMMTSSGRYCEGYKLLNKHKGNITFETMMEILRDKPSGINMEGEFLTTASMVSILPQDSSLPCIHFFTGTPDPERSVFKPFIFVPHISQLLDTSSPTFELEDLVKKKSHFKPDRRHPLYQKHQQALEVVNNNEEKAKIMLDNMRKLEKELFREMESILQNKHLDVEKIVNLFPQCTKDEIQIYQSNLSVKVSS
# Chain of UniProt Q13882 (whole entry, looked up): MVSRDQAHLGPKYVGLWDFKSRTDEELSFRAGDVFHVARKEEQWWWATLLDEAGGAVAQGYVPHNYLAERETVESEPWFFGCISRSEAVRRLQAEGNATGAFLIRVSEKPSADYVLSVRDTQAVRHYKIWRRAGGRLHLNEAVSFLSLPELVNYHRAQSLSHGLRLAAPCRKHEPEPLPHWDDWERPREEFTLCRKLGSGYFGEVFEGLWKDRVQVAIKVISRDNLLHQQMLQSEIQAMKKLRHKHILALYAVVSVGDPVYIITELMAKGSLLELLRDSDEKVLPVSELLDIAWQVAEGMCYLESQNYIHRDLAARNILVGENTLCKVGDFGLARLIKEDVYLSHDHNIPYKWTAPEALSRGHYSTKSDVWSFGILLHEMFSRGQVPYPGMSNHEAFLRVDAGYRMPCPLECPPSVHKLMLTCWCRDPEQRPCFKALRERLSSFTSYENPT
# Chain of UniProt P54756 (whole entry, looked up): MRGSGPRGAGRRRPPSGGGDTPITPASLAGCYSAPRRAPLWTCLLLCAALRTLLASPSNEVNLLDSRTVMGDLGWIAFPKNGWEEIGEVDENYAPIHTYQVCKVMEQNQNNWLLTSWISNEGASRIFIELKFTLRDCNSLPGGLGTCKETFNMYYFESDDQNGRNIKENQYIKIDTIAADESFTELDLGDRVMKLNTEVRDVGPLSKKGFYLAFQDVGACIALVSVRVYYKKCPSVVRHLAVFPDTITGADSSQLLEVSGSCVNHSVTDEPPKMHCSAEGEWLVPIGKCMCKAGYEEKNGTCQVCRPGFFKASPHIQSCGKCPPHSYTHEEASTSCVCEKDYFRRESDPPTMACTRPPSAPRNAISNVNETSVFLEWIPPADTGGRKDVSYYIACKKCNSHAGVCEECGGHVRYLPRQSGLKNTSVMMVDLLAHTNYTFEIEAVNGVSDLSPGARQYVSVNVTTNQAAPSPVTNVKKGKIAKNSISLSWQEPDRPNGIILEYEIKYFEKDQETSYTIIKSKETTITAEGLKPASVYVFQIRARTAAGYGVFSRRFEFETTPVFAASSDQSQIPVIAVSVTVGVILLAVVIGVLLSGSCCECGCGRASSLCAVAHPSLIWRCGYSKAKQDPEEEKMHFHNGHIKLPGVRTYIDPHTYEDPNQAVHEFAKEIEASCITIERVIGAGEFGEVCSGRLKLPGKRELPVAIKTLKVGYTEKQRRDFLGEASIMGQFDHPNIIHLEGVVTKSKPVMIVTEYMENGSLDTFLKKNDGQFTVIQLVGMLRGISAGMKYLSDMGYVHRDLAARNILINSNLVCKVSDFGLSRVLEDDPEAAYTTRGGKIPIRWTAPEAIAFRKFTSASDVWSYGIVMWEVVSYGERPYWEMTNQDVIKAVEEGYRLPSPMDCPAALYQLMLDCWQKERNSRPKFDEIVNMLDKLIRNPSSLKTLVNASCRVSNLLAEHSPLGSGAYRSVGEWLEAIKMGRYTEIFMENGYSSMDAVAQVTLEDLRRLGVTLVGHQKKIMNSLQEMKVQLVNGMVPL
# Chain of UniProt P27815 (whole entry, looked up): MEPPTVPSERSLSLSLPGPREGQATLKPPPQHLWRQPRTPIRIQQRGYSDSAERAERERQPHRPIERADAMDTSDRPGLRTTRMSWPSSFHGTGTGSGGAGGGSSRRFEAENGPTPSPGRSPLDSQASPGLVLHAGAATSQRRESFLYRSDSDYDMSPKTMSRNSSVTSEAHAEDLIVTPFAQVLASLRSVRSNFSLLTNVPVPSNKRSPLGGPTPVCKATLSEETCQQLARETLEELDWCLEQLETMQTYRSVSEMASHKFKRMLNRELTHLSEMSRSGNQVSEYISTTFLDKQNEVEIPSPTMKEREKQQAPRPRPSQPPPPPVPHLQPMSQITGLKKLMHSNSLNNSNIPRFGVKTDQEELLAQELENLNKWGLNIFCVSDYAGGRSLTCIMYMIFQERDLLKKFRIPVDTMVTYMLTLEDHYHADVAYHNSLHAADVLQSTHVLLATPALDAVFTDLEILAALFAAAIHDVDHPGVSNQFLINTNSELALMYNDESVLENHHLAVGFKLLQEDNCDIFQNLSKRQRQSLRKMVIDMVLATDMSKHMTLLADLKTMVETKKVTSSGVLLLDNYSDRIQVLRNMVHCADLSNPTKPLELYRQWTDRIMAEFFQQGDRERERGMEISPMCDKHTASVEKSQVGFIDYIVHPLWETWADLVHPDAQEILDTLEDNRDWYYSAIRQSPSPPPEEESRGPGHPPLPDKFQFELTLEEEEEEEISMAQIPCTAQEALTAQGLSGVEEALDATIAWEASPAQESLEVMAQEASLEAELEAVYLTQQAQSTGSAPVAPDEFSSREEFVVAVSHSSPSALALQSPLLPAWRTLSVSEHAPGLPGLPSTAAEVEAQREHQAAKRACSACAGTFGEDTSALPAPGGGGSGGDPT
# Chain of UniProt Q9Y2J8 (whole entry, looked up): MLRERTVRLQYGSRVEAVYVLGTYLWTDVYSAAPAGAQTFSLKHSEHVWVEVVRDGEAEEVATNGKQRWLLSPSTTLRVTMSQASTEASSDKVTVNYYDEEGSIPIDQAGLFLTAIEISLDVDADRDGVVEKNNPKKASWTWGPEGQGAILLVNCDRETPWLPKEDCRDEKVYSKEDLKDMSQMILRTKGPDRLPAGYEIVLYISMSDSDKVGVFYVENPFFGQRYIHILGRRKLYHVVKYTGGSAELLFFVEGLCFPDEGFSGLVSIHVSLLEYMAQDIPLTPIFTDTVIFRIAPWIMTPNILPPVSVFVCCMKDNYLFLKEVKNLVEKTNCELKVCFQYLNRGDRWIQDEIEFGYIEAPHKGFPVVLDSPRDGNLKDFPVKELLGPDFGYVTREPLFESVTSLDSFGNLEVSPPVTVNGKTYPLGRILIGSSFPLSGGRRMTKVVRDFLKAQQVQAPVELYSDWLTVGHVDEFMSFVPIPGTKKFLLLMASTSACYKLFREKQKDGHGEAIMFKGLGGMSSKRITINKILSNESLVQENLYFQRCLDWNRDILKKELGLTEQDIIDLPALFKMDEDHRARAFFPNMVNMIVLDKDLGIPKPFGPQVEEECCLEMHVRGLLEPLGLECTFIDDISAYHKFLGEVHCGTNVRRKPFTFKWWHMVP
# Chain of UniProt P11802 (whole entry, looked up): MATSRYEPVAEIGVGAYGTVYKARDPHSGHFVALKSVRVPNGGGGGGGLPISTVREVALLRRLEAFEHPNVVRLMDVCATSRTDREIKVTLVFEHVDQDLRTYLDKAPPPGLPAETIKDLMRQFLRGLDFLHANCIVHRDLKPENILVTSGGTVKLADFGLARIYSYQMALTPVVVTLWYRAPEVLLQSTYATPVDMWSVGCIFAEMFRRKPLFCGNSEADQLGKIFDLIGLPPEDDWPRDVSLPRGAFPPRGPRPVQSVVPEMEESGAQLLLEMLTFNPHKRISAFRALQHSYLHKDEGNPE
SMILES,target,test,test system,conditions,scale,selectivity ratio
Cn1nccc1[C@]1(CNC(=O)c2ccc(F)c(F)c2-c2ccc(C(F)(F)F)cc2)NC(=O)NC1=O,"Cathepsin S (CTSS, Homo sapiens, UniProt P25774)",inhibitor,,,relative to: CTSS over target,> 16700
NNc1ccc(F)cc1,"Secernin-3 (Homo sapiens, UniProt Q0VDG4)",gel-based ABPP,HEK-293T lysate,,relative to: IC50 SCRN2 over Secernin-3,25 fold
CC(=O)c1c(C)c2cnc(Nc3ccc(C4CCN(CCS(C)(=O)=O)CC4)cn3)nc2n(C2CCCC2)c1=O,"CDK4 (Homo sapiens, UniProt P11802)",inhibitor,,,relative to: CDK4 IC50 over CDK6 IC50,5.2
Cc1ccc2c(c1)C=CC21CCN(C2Cc3ccccc3CC2O)CC1 (racemic),SIGMAR1,,"rat liver (sigma2), human sigma1",,relative to: Ki sigma2 over Ki sigma1,180
COc1ccc(F)cc1C(=O)NCc1ccc(-c2nn([C@@H](C)C(F)(F)F)c(N)c2C(N)=O)cc1,"PTK6 (Homo sapiens, UniProt Q13882)","target engagement, NanoBRET",HEK293,,relative to: PTK6 over BTK,546
CCn1c(-c2nc3cc(C(=O)N4CCC[C@@H](N)C4)cc(OC)c3n2C)cc2cccnc21,"PADI2 (Homo sapiens, UniProt Q9Y2J8)",,,,relative to: Ki' PADI2 over Ki' PAD4,8
O[C@@H]1CCCC[C@H]1N1CCC(c2ccccc2)CC1 (racemic),SIGMAR1,,"rat liver (sigma2), human sigma1",,relative to: Ki sigma2 over Ki sigma1,5.5
COc1cc2nccc(Oc3ccc(NC(=O)c4cc5c(n(-c6ccccc6)c4=O)CCCC5=O)nc3)c2cc1OC,"EPHA5 (Homo sapiens, UniProt P54756)","cell viability, CellTiter-Glo",Ba/F3 expressing recombinant kinase,,relative to: EPHA5 IC50 over AXL IC50,> 100
OC1Cc2ccccc2CC1N1CCC2(C=Cc3ccc(F)cc32)CC1 (racemic),SIGMAR1,,"rat liver (sigma2), human sigma1",,relative to: Ki sigma2 over Ki sigma1,45
Cc1ccc([C@H]2C[C@@H]2COc2cc(NCc3nnc(C)s3)nc(C)n2)nc1,"3',5'-cyclic-AMP phosphodiesterase 4A, isoform PDE4A1 (PDE4A, Homo sapiens, UniProt P27815)","enzyme activity, inhibitor, IMAP fluorescence polarization",,isoform PDE4A1,relative to: Ki target over Ki PDE10A2,659000 fold

# A few entries again:
SMILES,target,test,test system,conditions,scale,selectivity ratio
OC1Cc2ccccc2CC1N1CCC2(C=Cc3ccc(F)cc32)CC1 (racemic),SIGMAR1,,"rat liver (sigma2), human sigma1",,relative to: Ki sigma2 over Ki sigma1,45
